# Assay results gathered from unrelated publications.
# Numbered parts are unrelated; each lists some results of a single study. Substitutions count along the parent as printed.

# Study 1
# Target: CCNB2, cyclin fold, Cln2 fusion (human)
# Method: yeast growth competition, sequencing
# Medium: yeast
# Notes: weak parent motif
# Baseline: not given
# Direction: higher = stronger binding
# Starting sequence: CDKN1B docking peptide (human); PSACRNLFGPVDH; partner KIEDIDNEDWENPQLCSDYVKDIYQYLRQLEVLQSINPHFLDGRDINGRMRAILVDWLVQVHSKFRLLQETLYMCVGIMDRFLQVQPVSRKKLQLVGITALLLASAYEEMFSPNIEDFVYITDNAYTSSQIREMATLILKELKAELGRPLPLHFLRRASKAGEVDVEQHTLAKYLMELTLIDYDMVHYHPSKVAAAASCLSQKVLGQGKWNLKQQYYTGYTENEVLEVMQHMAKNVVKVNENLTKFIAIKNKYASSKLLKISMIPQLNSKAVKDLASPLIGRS
Substitution,normalised enrichment score
D12E,-0.0552
R5E,-0.17
R5A L7A,-0.0757
P10F,0.0925
H13V,-0.301
D12H,0.222
S2M,0.0631
L7R,0.32
D12F,0.0962
D12Q,0.54
L7D,-0.168
R5T,-0.58
S2P,-0.104
R5F,-0.477
V11K,0.233
G9P,-0.301

# Study 2
# Target: Histone acetyltransferase KAT6A, winged helix 2, GST fusion (KAT6A, Homo sapiens, UniProt Q92794, residues 85-181)
# Method: protein binding microarray
# Form: double-stranded DNA, one strand shown
# Medium: in vitro
# Tested at: not given
# Notes: 8-mer, flanks averaged, mean of 2 arrays, mostly near background
# Baseline: not given
# Direction: higher = stronger binding
# Residues (chain): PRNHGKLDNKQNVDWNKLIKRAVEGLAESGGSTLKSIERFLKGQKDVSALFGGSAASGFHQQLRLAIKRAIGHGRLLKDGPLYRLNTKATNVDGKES
Sequence,E-score
ACGGATTC,-0.0535
CCTACGCC,-0.0312
CCAGTAGA,-0.137
CTATTCAC,-0.0814
ATCGTTAA,-0.119
AGCATACT,-0.0998
ATCTTGCC,0.135
CTCTCAAG,0.121
AGCGTTCC,-0.072
CCAGCAGA,0.0894
GATGGCTA,0.0648
ACTCAGCT,-0.113
AACAGAGA,0.0541
ACTAATCC,0.0444
CCACGGCG,0.226
AGGCCCCG,-0.0107
GGCTCCAC,0.025
AAACATAG,-0.091
AACCTTAA,0.0114
CAGAAGGC,-0.0434
TCGGAGAA,0.122
ACTAGATG,-0.103
GCTTGAGA,-0.0216

# Study 3
# Target: RING finger protein unkempt homolog, zinc fingers 1-6, GST-SBP tag (UNK, Homo sapiens, UniProt Q9C0B0, residues 30-357)
# Method: RNA Bind-n-Seq
# Form: RNA
# Medium: in vitro
# Tested at: not given
# Notes: RNA with constant flanks, human and mouse sites, ends assumed
# Baseline: input RNA pool
# Direction: higher = stronger binding
# All sequences stand within: GGGAGUUCUACAGUCCGACGAUC … CAACAGAGGAUUGAGCAUCA
# Target sequence (chain): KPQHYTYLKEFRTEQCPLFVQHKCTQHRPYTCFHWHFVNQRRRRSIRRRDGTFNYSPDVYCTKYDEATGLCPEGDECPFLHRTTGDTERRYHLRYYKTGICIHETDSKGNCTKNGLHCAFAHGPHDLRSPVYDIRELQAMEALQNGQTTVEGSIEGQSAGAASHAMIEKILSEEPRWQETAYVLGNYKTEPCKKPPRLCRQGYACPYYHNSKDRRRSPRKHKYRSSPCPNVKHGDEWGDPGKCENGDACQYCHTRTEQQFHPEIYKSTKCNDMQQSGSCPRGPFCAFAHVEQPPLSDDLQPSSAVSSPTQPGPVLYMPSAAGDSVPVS
Sequence,bound/input enrichment
AGUGCGCUUAGCACCAGCACUGGCUUUGGAGGCAUACUCAGCACCAGUGUCUGUUUUGGUGGCUCUCCCAGCUCCAGUGGUAGCUUUGGUGGUACACUCAGUACCAGUAUCUGCUUCGGU,0.0699 ratio
CGCCUCGCCCGCCGUCCACACCCCAGCGGCCCUGACGCUGUCCCCUCCGCGACCCUCGCCUCUGGAAAAAGUGACAGGCAAGGCCACGCCCCCGCGAGGGCCGGCCUGGAGCCCGCAGCC,0.187 ratio
GCCACAUUUGCUAUUUCCAUCCUGCAACAGUUGGAGAUUGAGUUCAAGGAGACCCAAGCACUAGUAUUGGCCCCCACCAGAGAACUGGCUCAACAGAUCCAAAAGGUAAUUUUGGCUCUU,0.128 ratio
CCAGCCCCAGUGCCAUCCAGGAGAAACCCCCCUGGCGGCAAGUCCAGCCUGGUCUUGGGUUAGCUUCUUGUGUUGGAACUCUGUCCUUCUGUCUGUCUGUUUGUUGUCCCAUGCUUGGGA,0.337 ratio
GCUAUGGACACAGAGUUCCCAGGUGUUGUUGUACGGCCGAUCGGUGAAUUUCGAAGCUCCAUAGAUUACCAGUAUCAGCUUCUGCGGUGCAAUGUUGAUCUUCUUAAAAUCAUCCAGCUG,0.465 ratio
CUGAGUAACCGUAUGAUGGUGGUGGUGGUGGUGUCUUCCUGUCUCAACGAUACCUAUUUUCUAGUGCUGAGAUCCUGAGACAAUGAGUGGUAUGAUCCAAAUGCUUCACUUCUUCGACGU,0.093 ratio
GUGUAGAGUGUUUAACCGAUGAGUAGAGUACAGUAUUCUCUGGUUAAUAAAAUUAUUCUAUUUAGUGCACUUGUUGCACAGAUGAACAUAGACACAAAGAGGCUAUAUGUCUUCUGCUGA,0.331 ratio
UGGCGAGAUACUGCAUGUUUGCUGUUCCACAAAGCAGUGGCUUAGCUGCCAUCUUGCUUUUCUUUGGACAACAGGAAGUGAACCUUAAGGAAGAGAGAAUUCUGUUCUAAAACUCCAAAA,0.0971 ratio
AGUAGAGAACAAUGACCUCAUUUUAUUUUCUAUGUUAGUUAUUUAUUUCAAAAUUAACAUUUUAGUUGAUUUUUGUCUGAUAAGUCUAUGUUUUGCACUGCUAACUAUGAUGAGGGUUUA,1.32 ratio
CGCCUCGGGUCGUGGAGCCAGGAGCGACGUCACCGCCAUGGCAGGCAUCAAAGCUUUGAUUAGUUUGUCCUUUGGAGGAGCAAUCGGACUGAUGUUUUUGAUGCUUGGAUGUGCCCUUCC,0.181 ratio
AGAAUCCCGAAUCCUGGGCCUGUCCAGGGUCAAAUGGAGUUUUUGGUAUUAAUACAUCUCUGCAGGGUUUCUUUUUGGAGCACUGUGCUGUCUUUCCUAGUCAGUCAGGGACUUUUUUAA,0.202 ratio

# Study 4
# Target: ABI1, truncated, D143A, DHFR fusion (Arabidopsis thaliana)
# Method: DHFR PCA, deep sequencing
# Medium: yeast
# Notes: methotrexate growth selection, single substitutions
# Added: (+)-ABA 4.8 µM
# Baseline: wild-type fitted maximum
# Direction: higher = stronger binding
# Starting sequence: PYL1, truncated, DHFR fusion (Arabidopsis thaliana); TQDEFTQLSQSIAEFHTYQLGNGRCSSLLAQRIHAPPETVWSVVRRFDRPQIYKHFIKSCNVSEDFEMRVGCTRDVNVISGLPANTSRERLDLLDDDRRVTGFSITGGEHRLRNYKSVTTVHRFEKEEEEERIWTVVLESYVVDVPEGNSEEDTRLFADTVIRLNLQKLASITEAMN; partner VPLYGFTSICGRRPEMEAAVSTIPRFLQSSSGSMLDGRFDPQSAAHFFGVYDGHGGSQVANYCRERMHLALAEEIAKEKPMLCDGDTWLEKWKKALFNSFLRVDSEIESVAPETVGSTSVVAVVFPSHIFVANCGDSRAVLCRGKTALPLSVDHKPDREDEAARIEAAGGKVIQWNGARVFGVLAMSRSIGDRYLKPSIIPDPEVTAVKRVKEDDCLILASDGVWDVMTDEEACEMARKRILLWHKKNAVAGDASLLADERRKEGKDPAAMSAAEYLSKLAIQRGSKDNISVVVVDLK
Substitution,relative binding score [%]
Y18K,40.2
I105P,-31.7
W134V,74.3
P36L,51.9
D92T,29.9
F157G,-2.57
E67N,62.3
R88E,68.4
R45I,-6.65
R49G,13
G81V,-4.55
E89I,-16.5
S104A,1.12
I133Y,74
K54F,-1.25
K126V,89.3
H34T,39.8
R132N,91
S27D,47.6
F15D,-0.563
G81E,2.29

# Study 5
# Target: RNA binding protein fox-1 homolog 2, RRM domain, GST-SBP tag (RBFOX2, Homo sapiens, UniProt O43251-10, residues 100-194)
# Method: RNA Bind-n-Seq
# Form: RNA
# Medium: in vitro
# Tested at: 365 nM
# Notes: natural RNA segment, single round, ends assumed
# Baseline: no-protein control
# Direction: higher = stronger binding
# All sequences stand within: GGGAGUUCUACAGUCCGACGAUC … UGGAAUUCUCGGGUGCCAA
# Target sequence (chain): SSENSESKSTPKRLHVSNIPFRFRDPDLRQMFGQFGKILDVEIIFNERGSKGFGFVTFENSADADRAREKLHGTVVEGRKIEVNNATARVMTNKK
Sequence,RBNS enrichment (R)
UUAAAGCAAGGAAAAGUGUAACUGAAACACUGCACUUUACUGUUUUAUACUUUUGUACAUAUGAGAAAUCAAGGGAUUAGUGCAACCAGUAGAAAGCAUUGAAAUGACUG,0.717
UCAUUUUUUAAUAUAGUAUGCCAAUUUUGUGACUGUUACCAUGUGAAAGUCCUGUUGAAAUGAACAAUUGUCUGCCCCACAAUCAAGAAUGUAUGUGUAAAGUGUGAAUA,17.1
CUGCAGGGGCUGUUGCAGCAGUCAGUCCCAGGAAGCCACAGCGCUUGUAGGAUCUGCUAGGACCCUGCAGCUGUGCUGCCGCCACCUCUGCUCCAGAGUGUCCCAGCCAA,0.304
UUUAAAAAGGGGAUGCCUGUCAGUAAAUCCCCUGUGCAUUGACUAGAACUGGGGGGCUGCGCCCGCUCCCUCCUUAAUCCUAGAUGAUUUGCUCAUGAAAUAGAGGUGGG,0.973
UGCAUCAGGAAUUUACCAGGAGAUGGAAAAGAACAGAAAAAGCCCUGAGCCUGUGUGUGUUCCUUCCGGCACCUGGCCAGCAUGGAGGGCUCUCCCUAGUCCUAGUGUGU,1.38
AUGUCAUUUGCCUUGCUCACUUGUAACCCCUUCCUCAGGUCCAAGAGAAUGGGAGGAGGGUCAUGUUGAAGUGUAGCCACUGGAACUUUCUUGCAUUUAUGGAGUUGCUU,2.17
UCACUGUAAUGGUGCUAUUAACAAACAGUCAACACCAUUGUAUUUUUUAACUUCGUGUUCUGUAUCUCCUCAGCCAUGUAUCUUAAAUAUAUUUUGUCAUCAUAAUCUUU,1.14
CAUUUCUAACCUGUGCCACCUCUUGUUUCGUUCAUGCUGAGCCUGUAGUUUCAGUCAUGGACUUUUGUACUGUUGAGUGCAAAGGCAUGUUGGGAAAGGUGUUGGGGAGG,0.497
CUGGCCCAGCUCUUAGCUUGUUCUGAGGGUUCUGCUGUGAGGUGAGGGCCCCAUCUCAGCAUCGUAGUUACAUAGUUGAUCUUAACUAAGCUUGGGAAUACGUCACCUGA,0.323
AUUAGACCCCAGGAUGGAGCGACCAGCAUGUCAUCCAUGUGGAAUCUUGGUGGCUUUGAGGACAUUCUGGAAAAUGCCACUGACCAGUGUGAACAAAAGGGAUGUGUUAU,0.957
CUGCACCAUCAUUGAGGGUUCACACCGCUGUACCACUGUACCACUGCUGUGGGUGGACACAGCAACAUGCCUUCCACCUGAUUUUUAAGAUUUUUUUUUUUUUUACUCAA,1.05
GUUGCAUUUUAAUCAGUAAUCUACCUGGUGGAUUUGUUUUUAACCAAAAAGAUGAAUUAUCAAUGAUUUGUAAUUAUAUCAGUUGAUUUUUUUUGAAAAGAUGAACCAAA,1.17

# Repeated from above (study 2):
Sequence,E-score
GATGGCTA,0.0648
ACTCAGCT,-0.113
AACAGAGA,0.0541
ACTAATCC,0.0444
CCACGGCG,0.226
AGGCCCCG,-0.0107
GGCTCCAC,0.025
AAACATAG,-0.091
AACCTTAA,0.0114
CAGAAGGC,-0.0434
TCGGAGAA,0.122
ACTAGATG,-0.103
GCTTGAGA,-0.0216
